# Measured values of several laboratories.
# Parts stem from different laboratories: compare values within a part only.

# Block 1
# Target: Histone acetyltransferase KAT6A, winged helix 2, GST fusion (KAT6A, Homo sapiens, UniProt Q92794, residues 85-181)
# Method: protein binding microarray
# Form: double-stranded DNA, one strand shown
# Medium: in vitro
# Tested at: not given
# Setting: 8-mer, flanks averaged, mean of 2 arrays, mostly near background
# Reference: not given
# Reading: higher = stronger binding
# Construct (chain): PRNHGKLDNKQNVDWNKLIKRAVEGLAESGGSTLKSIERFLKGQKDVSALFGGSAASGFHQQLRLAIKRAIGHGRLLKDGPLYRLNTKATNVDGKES
Oligonucleotide,E-score
GTTCCCGA,0.11
ATAAGGGC,-0.0858
CGCCGTCA,-0.00419
GACCCTCA,0.0277
ATCAATCC,-0.0567
GCTCTGCC,0.0371
AGCTCCCG,-0.0996
CTTGATAA,0.155

# Block 2
# Target: Ras GTPase-activating protein-binding protein 1, full length (G3BP1, Homo sapiens, UniProt Q13283)
# UniProt Q13283, sequence (whole entry, looked up): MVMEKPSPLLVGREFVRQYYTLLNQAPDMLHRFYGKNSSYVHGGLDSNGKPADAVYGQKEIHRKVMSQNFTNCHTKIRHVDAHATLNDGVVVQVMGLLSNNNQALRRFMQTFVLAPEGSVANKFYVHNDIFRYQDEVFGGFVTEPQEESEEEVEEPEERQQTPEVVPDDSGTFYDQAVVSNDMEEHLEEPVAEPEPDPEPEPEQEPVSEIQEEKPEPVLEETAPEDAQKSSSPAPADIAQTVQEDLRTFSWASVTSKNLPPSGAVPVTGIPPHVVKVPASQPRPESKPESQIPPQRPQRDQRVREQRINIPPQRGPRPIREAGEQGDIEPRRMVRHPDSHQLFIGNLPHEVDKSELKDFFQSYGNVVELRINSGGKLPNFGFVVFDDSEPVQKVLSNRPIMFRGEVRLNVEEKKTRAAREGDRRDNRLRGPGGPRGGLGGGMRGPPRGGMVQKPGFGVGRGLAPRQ
# Method: RNA Bind-n-Seq
# Form: RNA
# Medium: in vitro
# Tested at: 200 nM
# Setting: whole 134-nt RNA, ends assumed
# Added: 150 mM KCl
# Reference: input library
# Reading: higher = stronger binding
# Constant ends, left off below: GGGAGUUCUACAGUCCGACGAUC … UGGAAUUCUCGGGUGUCAAGG
Oligonucleotide,log2 enrichment
GCAGGAAGUAAAAACAAAUGGAAAGGCUUCGGAUAGUGGCAGGGGUGGGGGUUGCUAAGGAAAGGGUGGGAUGGGAGUGGGUAAAGAGUU,0.537
CUGUGCUACACAUCGUAUGUACCGAAUCGGCCCCCCCGGGGCCCCCCCGGGCCCCCCCGGGAAAGUAUUAUGUUACGCCGUUCGGAUCUG,-1.22
CACAAAAAACACGCACCCACACAGACACAGAGGGAAGGGGUUGGGAUGGGGACAGGGUGCACAGCAGGGCGGGGUAGGACCCCAGCCCCU,1.81
AAGUCCUGUGCUACACAUCGUAUGUACCGAAUCGGGUUUUUGGGAGGGUUUUUGGGAAAGUAUUAUGUUACGCCGUUCGGAUCUGCACUU,-0.173
CCUGUGCUACACAUCGUAUGUACCGAAUCGGGAAAAAAAGGAAAAAAAGGAAAAAAAGGGAAAGUAUUAUGUUACGCCGUUCGGAUCUGC,-0.746
AGUCCUGUGCUACACAUCGUAUGUACCGAAUCAAAUUUUUUUAAAUUUAAACCCAAAAAAGUAUUAUGUUACGCCGUUCGGAUCUGCACU,-0.584
AGUCCUGUGCUACACAUCGUAUGUACCGAAUCAAACCCAAACCCAAAUUUUUUUAAAAAAGUAUUAUGUUACGCCGUUCGGAUCUGCACU,-0.597
CCUGUGCUACACAUCGUAUGUACCGAAUCAAAUUUUUAAACCCCCCCAAAUUUUUUUAAAAAAGUAUUAUGUUACGCCGUUCGGAUCUGC,0.243

# Block 3
# Target: UDP-N-acetylglucosamine--peptide N-acetylglucosaminyltransferase 110 kDa subunit (OGT, Homo sapiens, UniProt O15294)
# UniProt O15294, sequence (whole entry, looked up): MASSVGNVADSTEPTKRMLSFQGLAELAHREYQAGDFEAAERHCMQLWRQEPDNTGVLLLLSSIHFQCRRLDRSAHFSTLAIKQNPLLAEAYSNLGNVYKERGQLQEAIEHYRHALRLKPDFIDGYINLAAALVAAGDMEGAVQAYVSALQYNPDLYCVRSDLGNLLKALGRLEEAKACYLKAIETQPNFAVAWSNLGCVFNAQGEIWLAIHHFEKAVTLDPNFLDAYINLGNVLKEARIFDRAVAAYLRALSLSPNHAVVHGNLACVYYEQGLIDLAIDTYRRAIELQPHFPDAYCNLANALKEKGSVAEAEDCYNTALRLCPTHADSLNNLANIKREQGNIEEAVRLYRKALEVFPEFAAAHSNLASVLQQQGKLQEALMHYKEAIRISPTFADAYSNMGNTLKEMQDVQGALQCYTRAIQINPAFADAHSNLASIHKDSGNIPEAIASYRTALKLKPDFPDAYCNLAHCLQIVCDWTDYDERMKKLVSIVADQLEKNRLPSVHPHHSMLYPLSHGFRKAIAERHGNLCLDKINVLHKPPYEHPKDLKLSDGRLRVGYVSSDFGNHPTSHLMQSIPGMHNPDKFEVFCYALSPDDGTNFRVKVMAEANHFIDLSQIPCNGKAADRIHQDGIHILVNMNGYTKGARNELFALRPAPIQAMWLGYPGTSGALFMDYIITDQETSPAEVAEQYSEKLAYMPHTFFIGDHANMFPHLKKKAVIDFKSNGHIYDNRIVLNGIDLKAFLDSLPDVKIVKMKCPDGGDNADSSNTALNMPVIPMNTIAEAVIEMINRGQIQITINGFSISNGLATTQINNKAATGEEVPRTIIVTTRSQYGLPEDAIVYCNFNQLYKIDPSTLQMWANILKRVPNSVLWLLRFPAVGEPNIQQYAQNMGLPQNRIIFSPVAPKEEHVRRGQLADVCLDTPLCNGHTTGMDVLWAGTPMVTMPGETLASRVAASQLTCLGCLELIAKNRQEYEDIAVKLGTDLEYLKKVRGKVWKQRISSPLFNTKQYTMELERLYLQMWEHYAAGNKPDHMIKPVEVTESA
# Read-out: binding
# Method: phage display NGS
# Form: peptide
# Tested at: concentration not given
# Setting: panning round 2
# Reference: input library
Molecule,enrichment fold change
HWHLHDSLYHQVDIH,8.98
HTEAHVNRHRHEHQI,5.57
RTFFPMYEIVIGMT,7.35
RPYDMAYAPVYMIKY,6.01
SQHVFINYHNHTHT,4.84
EHYHMHDIMKNQHSH,9.1
YGPHNHFHPHDHMP,5.89
WVLVPPFYQIVPSNR,124
INPPWHHVHRHHSWA,4.81
YMPQYQIMAQDKKV,2.91
AFSPFFPVYSIEIRR,9.8
VVPHMMHQWEHHHA,19.7
TVTPKYPPQYQILV,10.9
SYVHHPPHWWDKHVS,6.13
EQHFPPAYLITYKSR,16.1
DVYLHKHQRDHAYVA,11.3
EEQEHPFTPHYQIII,20.4
TARNHHAAHYSLHRG,10.3
HQEHKHEGHWAIFD,4.74
YDFLPMYQIRFYDYN,5.06
HIQEMHWHQINHEFT,2.89
SDRTPYTPRYQISY,7.84
HSWDHIWHTTYDNDK,5.19
VDTWHQRHHHQFSVD,5.23
QDFKPMYQIKIRSHA,136

# Block 4
# Target: Interferon regulatory factor 7, full length, phosphomimetic (IRF7, Homo sapiens, UniProt Q92985, residues 1-503, S101K/S471D/S472D/S475D/S476D/S477D/S483D/S484D/S487D)
# Method: protein-binding microarray
# Form: double-stranded DNA, one strand shown
# Medium: in vitro
# Tested at: 250 nM
# Setting: 60-bp whole probe
# Added: salmon DNA 0.4 mg/ml
# Reference: random background probes
# Reading: higher = stronger binding
# Constant ends, left off below: GCCTAGCAC … GTCTTGATTCGCTTGACGCTGCTG
# Target sequence (chain): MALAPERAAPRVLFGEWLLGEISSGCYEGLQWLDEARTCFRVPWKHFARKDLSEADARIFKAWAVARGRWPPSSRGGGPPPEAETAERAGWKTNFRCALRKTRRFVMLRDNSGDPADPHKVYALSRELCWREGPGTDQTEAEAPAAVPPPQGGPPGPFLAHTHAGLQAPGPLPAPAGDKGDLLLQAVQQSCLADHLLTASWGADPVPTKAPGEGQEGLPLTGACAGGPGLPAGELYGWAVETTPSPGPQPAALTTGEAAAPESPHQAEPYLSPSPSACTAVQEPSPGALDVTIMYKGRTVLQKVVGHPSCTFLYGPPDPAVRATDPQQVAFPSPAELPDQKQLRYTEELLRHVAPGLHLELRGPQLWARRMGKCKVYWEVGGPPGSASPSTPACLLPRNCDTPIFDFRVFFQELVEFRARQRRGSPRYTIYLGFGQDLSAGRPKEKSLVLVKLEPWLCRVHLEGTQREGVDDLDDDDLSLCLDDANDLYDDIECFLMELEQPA
Oligonucleotide,log fluorescence
CTCATTCTCCACTTGTGTTTGTGCTAG,1.79 z-score
TTTCACACTGTCCAGCAGGTGTGCTAG,0.915 z-score
CCATGTTGCAGACTCGAAGGGTGCTAG,0.714 z-score
TTAGGTTTCGATTCCGGTTAGTGCTAG,12.6 z-score
TTAGGTTTCGGTATCGGCTAGTGCTAG,10.2 z-score
TTAGGACTGGGTTTCGGTGAGTGCTAG,1.12 z-score
GACGGTATCGACACTGAGGACGTGCTA,-0.294 z-score
TTAGGTCTCGGTCTCGGCTAGTGCTAG,1.22 z-score

# Single results of other studies
SMILES,tested on,test,system,conditions,how to read,quantity,result
CCCNC(C)C(=O)Nc1ccccc1C (stereo not drawn),HEK-293T,"pseudovirus infection, FDA-approved drug library counter-screen",VSV pseudotyped with VSV-G,"10 µM, 16 h",reference: vehicle-treated,GFP-positive cells,103%
COc1cc(C(=O)OCCCN2CCCN(CCCOC(=O)c3cc(OC)c(OC)c(OC)c3)CC2)cc(OC)c1OC,,,"CD-1 mice, male, spinal cord","subcutaneous, 30 mg/kg, 8 h",,concentration,0.93 ng/mL
